{"data": "Measured values pooled from the literature", "note": "Parts stem from different laboratories: compare values within a part only.", "sequence of UniProt Q9Y2H9 (whole entry, looked up)": "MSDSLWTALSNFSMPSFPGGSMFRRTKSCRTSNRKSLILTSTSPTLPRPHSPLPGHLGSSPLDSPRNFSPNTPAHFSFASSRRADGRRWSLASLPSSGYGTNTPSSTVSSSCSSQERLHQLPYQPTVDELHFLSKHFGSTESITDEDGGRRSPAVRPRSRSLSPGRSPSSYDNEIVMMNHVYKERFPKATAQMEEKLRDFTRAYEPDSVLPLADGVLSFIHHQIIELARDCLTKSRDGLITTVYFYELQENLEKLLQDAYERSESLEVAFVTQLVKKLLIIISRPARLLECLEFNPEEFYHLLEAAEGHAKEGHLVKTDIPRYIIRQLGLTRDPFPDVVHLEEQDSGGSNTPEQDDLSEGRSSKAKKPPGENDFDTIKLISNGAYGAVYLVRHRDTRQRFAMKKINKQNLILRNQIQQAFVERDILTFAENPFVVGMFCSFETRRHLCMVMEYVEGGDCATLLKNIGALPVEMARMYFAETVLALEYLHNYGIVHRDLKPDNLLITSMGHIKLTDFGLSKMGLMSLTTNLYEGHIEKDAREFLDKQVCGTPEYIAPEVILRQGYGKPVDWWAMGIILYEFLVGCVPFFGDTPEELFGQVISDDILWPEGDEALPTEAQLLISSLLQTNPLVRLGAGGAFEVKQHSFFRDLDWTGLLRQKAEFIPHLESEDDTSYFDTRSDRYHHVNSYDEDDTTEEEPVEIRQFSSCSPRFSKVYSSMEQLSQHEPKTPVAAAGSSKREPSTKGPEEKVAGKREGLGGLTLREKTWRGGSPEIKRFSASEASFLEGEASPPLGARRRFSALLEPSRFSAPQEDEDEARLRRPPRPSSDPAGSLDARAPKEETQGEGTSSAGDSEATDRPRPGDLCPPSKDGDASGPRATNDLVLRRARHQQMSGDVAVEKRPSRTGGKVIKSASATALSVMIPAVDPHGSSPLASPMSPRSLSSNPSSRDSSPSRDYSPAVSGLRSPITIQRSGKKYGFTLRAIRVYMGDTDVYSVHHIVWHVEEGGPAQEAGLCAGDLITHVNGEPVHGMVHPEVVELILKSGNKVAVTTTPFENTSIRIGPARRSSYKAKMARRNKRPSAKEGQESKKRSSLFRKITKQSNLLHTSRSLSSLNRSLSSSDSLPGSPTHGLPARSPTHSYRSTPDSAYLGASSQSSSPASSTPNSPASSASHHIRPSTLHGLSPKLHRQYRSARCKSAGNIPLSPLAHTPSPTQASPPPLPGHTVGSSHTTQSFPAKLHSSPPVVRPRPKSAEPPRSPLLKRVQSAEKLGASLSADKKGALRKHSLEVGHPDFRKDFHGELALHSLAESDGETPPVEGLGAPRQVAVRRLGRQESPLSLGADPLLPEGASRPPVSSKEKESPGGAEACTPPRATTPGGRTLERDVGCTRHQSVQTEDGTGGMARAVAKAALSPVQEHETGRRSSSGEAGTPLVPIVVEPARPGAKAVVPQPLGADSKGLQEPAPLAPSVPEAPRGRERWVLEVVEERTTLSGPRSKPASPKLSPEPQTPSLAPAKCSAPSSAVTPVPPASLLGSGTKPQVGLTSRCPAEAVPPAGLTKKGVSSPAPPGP", "sequence of UniProt Q9BRS2 (whole entry, looked up)": "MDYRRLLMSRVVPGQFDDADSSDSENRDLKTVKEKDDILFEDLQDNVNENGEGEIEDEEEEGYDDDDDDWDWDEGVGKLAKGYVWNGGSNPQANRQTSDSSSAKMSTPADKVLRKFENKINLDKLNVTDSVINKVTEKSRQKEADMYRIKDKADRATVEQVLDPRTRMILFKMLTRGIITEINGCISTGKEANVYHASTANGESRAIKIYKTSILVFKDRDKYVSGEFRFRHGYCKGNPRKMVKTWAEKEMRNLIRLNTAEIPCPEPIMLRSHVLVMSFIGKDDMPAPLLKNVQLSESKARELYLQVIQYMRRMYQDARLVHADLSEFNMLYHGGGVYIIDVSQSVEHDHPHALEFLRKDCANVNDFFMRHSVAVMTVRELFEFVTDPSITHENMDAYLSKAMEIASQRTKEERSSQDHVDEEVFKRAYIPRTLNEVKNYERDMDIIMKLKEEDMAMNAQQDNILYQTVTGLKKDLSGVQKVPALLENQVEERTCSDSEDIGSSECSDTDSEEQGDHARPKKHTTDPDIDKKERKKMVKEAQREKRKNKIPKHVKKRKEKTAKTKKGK", "sequence of UniProt Q15303 (whole entry, looked up)": "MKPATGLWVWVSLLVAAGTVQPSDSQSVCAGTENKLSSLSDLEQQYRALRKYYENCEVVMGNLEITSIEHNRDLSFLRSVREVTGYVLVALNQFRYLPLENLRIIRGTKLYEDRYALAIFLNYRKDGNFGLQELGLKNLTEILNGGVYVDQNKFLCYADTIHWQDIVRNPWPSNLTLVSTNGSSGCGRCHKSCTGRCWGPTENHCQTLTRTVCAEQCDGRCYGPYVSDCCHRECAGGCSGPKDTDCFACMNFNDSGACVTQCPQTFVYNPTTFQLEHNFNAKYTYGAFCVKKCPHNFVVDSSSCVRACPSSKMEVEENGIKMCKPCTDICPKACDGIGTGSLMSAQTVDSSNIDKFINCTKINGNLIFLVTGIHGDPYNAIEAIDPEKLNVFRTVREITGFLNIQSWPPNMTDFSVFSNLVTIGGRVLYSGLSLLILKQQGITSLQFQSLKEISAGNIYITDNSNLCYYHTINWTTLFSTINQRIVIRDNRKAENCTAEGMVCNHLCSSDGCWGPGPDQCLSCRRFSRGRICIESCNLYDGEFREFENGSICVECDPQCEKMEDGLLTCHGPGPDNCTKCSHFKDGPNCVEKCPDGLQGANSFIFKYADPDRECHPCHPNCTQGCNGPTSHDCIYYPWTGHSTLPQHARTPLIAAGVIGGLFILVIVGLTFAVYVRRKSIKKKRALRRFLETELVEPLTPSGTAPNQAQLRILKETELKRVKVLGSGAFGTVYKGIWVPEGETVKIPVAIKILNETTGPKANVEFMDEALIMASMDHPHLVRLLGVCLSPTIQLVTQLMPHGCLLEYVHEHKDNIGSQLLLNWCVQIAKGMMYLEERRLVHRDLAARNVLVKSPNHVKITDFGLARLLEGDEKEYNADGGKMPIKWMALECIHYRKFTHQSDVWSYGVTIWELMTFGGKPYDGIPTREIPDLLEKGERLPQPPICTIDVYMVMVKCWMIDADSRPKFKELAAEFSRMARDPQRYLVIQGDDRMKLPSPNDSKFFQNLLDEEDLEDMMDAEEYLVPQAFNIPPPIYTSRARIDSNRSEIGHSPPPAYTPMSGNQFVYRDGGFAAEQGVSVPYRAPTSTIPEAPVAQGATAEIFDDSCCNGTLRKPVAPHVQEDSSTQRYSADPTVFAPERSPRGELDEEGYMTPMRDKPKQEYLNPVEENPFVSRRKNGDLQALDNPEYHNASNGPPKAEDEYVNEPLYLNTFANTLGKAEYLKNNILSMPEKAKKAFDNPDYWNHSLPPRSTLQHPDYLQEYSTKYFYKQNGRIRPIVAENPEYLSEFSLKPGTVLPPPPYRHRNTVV", "sequence of UniProt Q9H2K8 (whole entry, looked up)": "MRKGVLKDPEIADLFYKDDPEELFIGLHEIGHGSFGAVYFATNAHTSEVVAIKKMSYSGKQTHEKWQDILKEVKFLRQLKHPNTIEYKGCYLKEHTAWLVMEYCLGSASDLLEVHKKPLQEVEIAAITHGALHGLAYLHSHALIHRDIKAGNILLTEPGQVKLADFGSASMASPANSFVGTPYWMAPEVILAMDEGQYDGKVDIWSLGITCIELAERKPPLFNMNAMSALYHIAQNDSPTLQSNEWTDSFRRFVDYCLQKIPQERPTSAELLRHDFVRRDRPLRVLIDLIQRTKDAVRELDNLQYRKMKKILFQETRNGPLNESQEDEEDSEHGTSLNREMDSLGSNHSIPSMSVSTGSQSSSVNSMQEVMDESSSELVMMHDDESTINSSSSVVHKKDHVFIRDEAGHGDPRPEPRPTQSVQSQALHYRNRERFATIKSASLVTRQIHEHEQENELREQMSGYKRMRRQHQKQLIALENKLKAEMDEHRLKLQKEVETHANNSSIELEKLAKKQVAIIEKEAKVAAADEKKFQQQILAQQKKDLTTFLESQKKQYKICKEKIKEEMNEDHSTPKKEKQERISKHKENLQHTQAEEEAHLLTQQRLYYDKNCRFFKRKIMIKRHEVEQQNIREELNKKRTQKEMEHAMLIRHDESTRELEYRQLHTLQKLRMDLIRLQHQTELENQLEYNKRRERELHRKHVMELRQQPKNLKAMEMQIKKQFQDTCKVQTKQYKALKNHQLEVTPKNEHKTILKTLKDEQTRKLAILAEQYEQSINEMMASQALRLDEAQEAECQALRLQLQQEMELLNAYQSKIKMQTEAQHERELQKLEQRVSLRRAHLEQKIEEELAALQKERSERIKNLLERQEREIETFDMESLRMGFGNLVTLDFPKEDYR", "sequence of UniProt P53779 (whole entry, looked up)": "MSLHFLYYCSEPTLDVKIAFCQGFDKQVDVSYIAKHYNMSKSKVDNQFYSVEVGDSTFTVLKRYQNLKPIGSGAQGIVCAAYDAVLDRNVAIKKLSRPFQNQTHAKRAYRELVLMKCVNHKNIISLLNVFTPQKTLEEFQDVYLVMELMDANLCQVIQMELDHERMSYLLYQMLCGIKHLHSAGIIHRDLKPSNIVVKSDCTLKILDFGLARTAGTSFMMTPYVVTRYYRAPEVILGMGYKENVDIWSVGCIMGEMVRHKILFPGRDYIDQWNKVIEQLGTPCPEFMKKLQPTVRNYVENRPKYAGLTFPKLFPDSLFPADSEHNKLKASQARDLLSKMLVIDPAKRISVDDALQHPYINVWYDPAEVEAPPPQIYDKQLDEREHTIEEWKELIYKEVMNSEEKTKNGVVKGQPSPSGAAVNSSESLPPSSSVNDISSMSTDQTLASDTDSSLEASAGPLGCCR"}
{"data": "Study 1", "observed": "AlphaScreen signal", "method": "AlphaScreen counter screen", "sample": "His6 peptide without bromodomain", "concentration": "50 µM", "notes": "assay interference check"}
{"SMILES": "CNc1nc(-c2ccc3c(N)n[nH]c3c2)cc(N2C[C@@H](C(=O)NC3CCCCC3)CC[C@H]2C)n1", "inhibition": "59.1%"}
{"SMILES": "Cc1ccc(NC(=O)c2snc3c(=O)[nH]cnc23)cc1", "inhibition": "25.8%"}
{"SMILES": "COc1cc2c(cc1OC)-c1[nH]nc(Nc3cccc(F)c3)c1C2", "inhibition": "59%"}
{"SMILES": "c1coc(-c2nnc(CSc3nnc(NC4CC4)s3)o2)c1", "inhibition": "0.9%"}
{"SMILES": "Cn1cccc1C=C(C#N)c1nc2ccccc2s1", "inhibition": "69.5%"}
{"SMILES": "CCOc1cc2ncc(C#N)c(Nc3ccc(OCc4ccccn4)c(Cl)c3)c2cc1NC(=O)/C=C/CN(C)C", "inhibition": "41.4%"}
{"data": "Study 2", "Compound": "Cc1c(C(=O)O)cc(-c2ccc(C3CCNCC3)cc2)c2ccc(-c3ccc(C(F)(F)F)cc3)cc12", "method": "competition with immobilised ligand", "concentration": "1 µM"}
{"target": "PKN2 (Homo sapiens, UniProt Q16513)", "test": "binding", "remaining binding [%]": 100}
{"target": "STK25 (Homo sapiens, UniProt O00506)", "test": "binding", "remaining binding [%]": 100}
{"target": "LATS2 (Homo sapiens, UniProt Q9NRM7)", "test": "binding", "remaining binding [%]": 100}
{"target": "TAOK3 (Homo sapiens, UniProt Q9H2K8)", "test": "binding", "remaining binding [%]": 100}
{"target": "FLT3 (Homo sapiens, UniProt P36888, D835V)", "test": "binding", "remaining binding [%]": 100}
{"target": "ERBB4 (Homo sapiens, UniProt Q15303)", "test": "binding", "remaining binding [%]": 100}
{"target": "MAPK7 (Homo sapiens, UniProt Q13164)", "test": "binding", "remaining binding [%]": 100}
{"target": "MAPK10 (Homo sapiens, UniProt P53779)", "test": "binding", "remaining binding [%]": 100}
{"target": "KIT (Homo sapiens, UniProt P10721)", "test": "binding", "remaining binding [%]": 100}
{"target": "MAST1 (Homo sapiens, UniProt Q9Y2H9)", "test": "binding", "remaining binding [%]": 100}
{"target": "RIOK1 (Homo sapiens, UniProt Q9BRS2)", "test": "binding", "remaining binding [%]": 100}
{"target": "Tyrosine-protein kinase JAK1, JH2 (JAK1, Homo sapiens, UniProt P23458)", "test": "binding", "remaining binding [%]": 79}
{"target": "EPHB2 (Homo sapiens, UniProt P29323)", "test": "cell-free assay", "remaining binding [%]": 92}
{"target": "STK24 (Homo sapiens, UniProt Q9Y6E0)", "test": "binding", "remaining binding [%]": 100}
{"target": "MINK1 (Homo sapiens, UniProt Q8N4C8)", "test": "binding", "remaining binding [%]": 100}
{"target": "DDR2 (Homo sapiens, UniProt Q16832)", "test": "cell-free assay", "remaining binding [%]": 100}
{"target": "Myosin-IIIa (MYO3A, Homo sapiens, UniProt Q8NEV4)", "test": "binding", "remaining binding [%]": 100}
{"target": "STK11 (Homo sapiens, UniProt Q15831)", "test": "binding", "remaining binding [%]": 94}
{"target": "FLT1 (Homo sapiens, UniProt P17948)", "test": "cell-free assay", "remaining binding [%]": 80}
{"data": "Study 3", "target": "Serine/threonine-protein kinase Nek7 (NEK7, Homo sapiens, UniProt Q8TDX7)", "observed": "enzyme activity", "mode": "inhibitor", "concentration": "0.5 µM", "relative to": "control", "Construct (Q8TDX7 1-302)": "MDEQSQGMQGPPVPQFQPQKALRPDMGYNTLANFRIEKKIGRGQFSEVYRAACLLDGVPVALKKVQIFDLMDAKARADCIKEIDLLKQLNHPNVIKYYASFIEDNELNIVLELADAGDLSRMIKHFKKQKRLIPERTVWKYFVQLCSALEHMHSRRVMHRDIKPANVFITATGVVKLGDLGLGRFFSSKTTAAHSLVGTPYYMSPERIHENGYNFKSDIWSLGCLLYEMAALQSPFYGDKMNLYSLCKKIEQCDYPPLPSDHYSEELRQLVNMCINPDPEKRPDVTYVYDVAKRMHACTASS"}
{"Compound": "C[C@@H](N)[C@H]1CC[C@H](C(=O)Nc2ccncc2)CC1", "remaining activity": "106%"}
{"Compound": "O=C(c1ccccc1)c1ccc(N2CCOCC2)cc1O", "remaining activity": "104%"}
{"Compound": "Nc1nc(Nc2ccc(S(N)(=O)=O)cc2)nn1C(=S)Nc1c(F)cccc1F", "remaining activity": "82.6%"}
{"Compound": "N#C/C(=C(/N)SC1C=CC=CC1)c1cccc(C(O)c2ccncc2)c1 (stereo not shown)", "remaining activity": "96.2%"}
{"Compound": "COc1cc2c(Nc3ccc(Br)cc3F)ncnc2cc1OCC1CCN(C)CC1", "remaining activity": "99%"}
{"Compound": "CC(C)n1cnc2c(Nc3cccc(Cl)c3)nc(NCCO)nc21", "remaining activity": "93.9%"}
{"Compound": "O=c1c(-c2ccc(F)cc2)c(-c2ccncc2)[nH]n1-c1ccc(Cl)cc1", "remaining activity": "90.1%"}
{"Compound": "O=C1NC(=O)/C(=C/c2ccc3c(c2)OC(F)(F)O3)S1", "remaining activity": "105%"}
{"Compound": "CNc1cc2c(Nc3cccc(Br)c3)ncnc2cn1", "remaining activity": "90.4%"}
{"Compound": "N#CC(c1ccnc(NCCc2cccnc2)n1)c1nc2ccccc2s1 (stereo not shown)", "remaining activity": "88.2%"}
{"data": "Study 4", "cell line": "HaCaT", "concentration": "100 µM", "time": "18 h"}
{"Compound": "CCOc1ccc(NC(C)=O)cc1", "viability": "112%"}
{"Compound": "O=c1c(O[C@@H]2O[C@H](CO)[C@H](O)[C@H](O)[C@H]2O)c(-c2ccc(O)c(O)c2)oc2cc(O)cc(O)c12", "viability": "118%"}
{"Compound": "C[C@@H](c1nc(-c2ccc(C#N)cc2)cs1)[C@](O)(Cn1cncn1)c1cc(F)ccc1F", "viability": "30.1%"}
{"Compound": "NS(=O)(=O)c1cc2c(cc1Cl)NCNS2(=O)=O", "viability": "97%"}
{"data": "Other studies, line by line"}
{"Structure (SMILES)": "COc1ccc(-c2c(Nc3ccccn3)[nH]c3c(C4=CCCCC4)c(-c4ccccc4)nn3c2=O)cc1", "test": "immunohistochemistry", "test system": "cancer patients, paired tumour biopsies", "conditions": "dose not given", "scale": "relative to: baseline, direction not given", "endpoint": "mean SDMA H-score reduction", "result": "~36%"}
